Experimental data from different studies.
Numbered parts are unrelated; each lists some results of a single study.

Set 1 — technique: RNA Bind-n-Seq; form: RNA; sample: in vitro; tested at: 365 nM; baseline: no-protein control; direction: higher = stronger binding
Target: RNA binding protein fox-1 homolog 2, RRM domain, GST-SBP tag (RBFOX2, Homo sapiens, UniProt O43251-10, residues 100-194)
Notes: natural RNA segment, single round, ends assumed
Construct (chain): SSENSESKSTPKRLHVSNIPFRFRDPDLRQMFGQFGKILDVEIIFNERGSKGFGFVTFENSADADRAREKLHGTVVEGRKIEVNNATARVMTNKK
| Strand | RBNS enrichment (R) |
| --- | --- |
| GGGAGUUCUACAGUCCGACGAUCGUGGUCCUCAGCAGGGUUUUGACCUUGAUUGGCGGCUACUCUGGCAACCACUGCCCAUUCUUCUAAUCCCUCACAAUACGUGAUUCAGACCCUGAGCCUGGUCCACAGUGUGGAAUUCUCGGGUGCCAA | 0.247 |
| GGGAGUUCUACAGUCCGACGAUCCCGACUCGCAUCUGGUAUUGUAGACCUUUUACCUCUCAUCCGUUGUGCUUACUAACAAAAUGUGAAAAGCAAGACCCAGGUGUCUCAUGUGGUGGCAGCACAGUGGCAGGUGGAAUUCUCGGGUGCCAA | 0.563 |
| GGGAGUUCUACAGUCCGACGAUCUACCUGCCCGACCCCUCCCCCACCAAGGUAUCUUGGGCUCCAGCCUCAGAGCCUGGACUAGUUCUGAGCAUGUGUCCCUCUGUGUAUAGUGAGGAAGUGAGAGCAGAGGCUGGAAUUCUCGGGUGCCAA | 4.92 |
| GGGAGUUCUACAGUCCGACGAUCUUGGGCCGGCCCCGGUGCCCACCUGUACCCCCACCUCGCCCAUUUGGCCGCGUGCACUGAGUGUCACUUUGCUGCAGCUCGUUUCUUUCCAAUAAAAGUUUCUGUGACUUUGGAAUUCUCGGGUGCCAA | 0.28 |
| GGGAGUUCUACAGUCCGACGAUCUAUCACUAGGCCAUAAAAAUGGAGAUGAUGUUUUGCUUGUGUCACAGUAGGUCUUGUGCAGUGUCACUUGUAGUUGCAUGGUUACAGCGUGCUGAGUUUGACCAUUACAUUGGAAUUCUCGGGUGCCAA | 11.7 |
| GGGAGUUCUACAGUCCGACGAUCCCCUCUCUUGUUUCCUCUCCUCUUCUUAUGCCCCCUCCUGGGGAGGAGGCUACUGGAUGUAAGCUGUGCAGACCUGCUUCCCUCAGCAUUAAAUGUCUUCUCUUGAGCUGUGGAAUUCUCGGGUGCCAA | 0.633 |
| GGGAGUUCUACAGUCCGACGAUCCACGUUAUAGUCAAAUGAGUUAGCUGAUGGUUUCUAGAUUUUCUUCCUCUGAACCAUGAUGCAGUAGGUAAGAAGUUAUUAUGCGUAUAUACAUAUAUACAUUCAUAUACUGGAAUUCUCGGGUGCCAA | 0.503 |
| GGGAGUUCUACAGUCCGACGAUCUGGUCAUCGACCUAUUUUUGUUGAAGAAUGAAAGGCAAUGACAAGUUUAACAUAUACAAAUUCGUGAAUUCUUGUUCAUUUUGCAUUCCUGCAGUCAGUGCUAAUCCGUCUGGAAUUCUCGGGUGCCAA | 0.338 |
| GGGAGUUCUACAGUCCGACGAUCCCAAGUUCUAAAAGUUAUGGUUAGAUGCUAUUCUGUGGGUUGCUUUGAUAAUUCUUACUAACACAGAUUAGGGUAUAGGCAUCUAGAGAUGCACUGUCCACUGUAAAUACUGGAAUUCUCGGGUGCCAA | 2.48 |
| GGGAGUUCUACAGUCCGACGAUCUGCGCCCUGUUCUGUCCUUUCCCAAAGCCCCCUUCUGCCCAUAGCAUGGAUCCAACCCAGGUCACAGGCCUGGGACUUGGUACCCUGGUUGGACACUCCUGAGACUCCAAUGGAAUUCUCGGGUGCCAA | 0.485 |
| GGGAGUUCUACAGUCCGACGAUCGCAUUGAUGAUUCCUUCAACUUCCUGGUGAAACUGCUGACUUAAUUUGCUUUUGUUUGCUUUAGCUUGGUAACAGCGGUGAAUAGAGUGUAGUGUAAGUGGAGAACCAGGUGGAAUUCUCGGGUGCCAA | 0.302 |
| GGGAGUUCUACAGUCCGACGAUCUUCUCUUUGUUUCUGUUUCUUGCUCUCUCUCCCUGCCUUUAAAUGAAACAAGUCUAGUCUUCUGGUUUUCUAGCCCCUCUGGAUUCCCUUUUGACUCUUCCGUGCAUCCCUGGAAUUCUCGGGUGCCAA | 1.13 |

Set 2 — technique: RNA Bind-n-Seq; form: RNA; sample: in vitro; tested at: 20 nM; notes: 6-mer, flanks averaged, single round; added: 150 mM LiCl; baseline: input library; direction: higher = stronger binding
Target: TAR DNA-binding protein 43, full length, His tag (TARDBP, Homo sapiens, UniProt Q13148, residues 1-414)
| Strand | 6-mer enrichment (R) |
| --- | --- |
| UAAAUC | 0.864 |
| AACUGA | 0.796 |
| UGUAGG | 1.18 |
| GCCGGG | 1.09 |
| GAACGA | 0.871 |
| UCGCCG | 0.868 |
| CGAAGC | 0.84 |
| AAAUAA | 1.03 |
| UACACC | 0.985 |
| UUUGAC | 0.974 |
| UAGCCG | 0.89 |
| UGGGUU | 1.2 |
| AGACCC | 0.926 |

Set 3 — technique: protein-binding microarray; form: double-stranded DNA, one strand shown; sample: in vitro; tested at: not given; direction: higher = stronger binding
Target: Transcription factor SOX-2, HMG box (SOX2, Homo sapiens, UniProt P48431, residues 19-118)
Sequence of UniProt P48431 (19-118, looked up): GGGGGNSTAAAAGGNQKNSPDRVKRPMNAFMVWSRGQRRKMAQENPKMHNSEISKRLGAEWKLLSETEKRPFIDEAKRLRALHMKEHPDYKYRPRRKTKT
Notes: k-mer, scored over probes, only values ≥0.25
| Strand | E-score |
| --- | --- |
| ATTGTTG | 0.46 |
| GGAACAA | 0.342 |
| CTTTTCA | 0.331 |
| AATAAAT | 0.378 |
| ATAATTG | 0.459 |
| TAAATTA | 0.339 |
| AATGTAA | 0.335 |
| ATGTATA | 0.321 |
| GTGACAA | 0.284 |
| AATTCAC | 0.414 |
| AGAATTA | 0.322 |
| AAAACGG | 0.329 |
| TAACAAA | 0.378 |
| ACTGAAT | 0.382 |
| ATTCATC | 0.432 |
| ATTGAAA | 0.339 |
| GAATAAA | 0.35 |
| ATTAAAA | 0.277 |
| ATAATCG | 0.275 |

Set 4 — technique: protein binding microarray; form: double-stranded DNA, one strand shown; sample: in vitro; tested at: not given; baseline: not given; direction: higher = stronger binding
Target: Histone acetyltransferase KAT6A, both winged helices, GST fusion (KAT6A, Homo sapiens, UniProt Q92794, residues 1-181)
Notes: 8-mer, flanks averaged, mean of 2 arrays, mostly near background
Residues (chain): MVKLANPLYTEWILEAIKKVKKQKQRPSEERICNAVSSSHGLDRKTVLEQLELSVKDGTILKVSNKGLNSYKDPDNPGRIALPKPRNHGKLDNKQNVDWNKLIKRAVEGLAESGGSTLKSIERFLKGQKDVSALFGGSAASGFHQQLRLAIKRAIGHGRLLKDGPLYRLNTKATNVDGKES
| Strand | E-score |
| --- | --- |
| AACCTTGA | -0.0679 |
| AAGCACCG | 0.0709 |
| GGGCGCCC | 0.245 |
| AGTAAGCA | -0.192 |
| CACTGAGC | -0.0327 |
| GCAGTACA | -0.13 |
| GCCCGTCA | 0.299 |
| GAGTCAAA | -0.0576 |
| CGGAGCGC | 0.301 |
| CCCCTGAA | -0.117 |
| ACGTGTAG | 0.00707 |
| ATACCACC | -0.0174 |
| AAGCTTTG | -0.147 |
| CCCTAGGA | -0.282 |
| CCCCCCCC | -0.248 |
| CCGCCTAA | 0.18 |
| AGTACAAC | -0.0332 |
| CAATTTCC | 0.0719 |
| AGGCCAGG | -0.114 |

Set 5 — technique: protein-binding microarray; form: double-stranded DNA, one strand shown; sample: in vitro; tested at: 940 nM top; notes: 60-bp whole probe; added: salmon DNA 0.4 mg/ml; baseline: random background probes; direction: higher = stronger binding; all sequences stand within: GCCTAGCAC … GTCTTGATTCGCTTGACGCTGCTG
Target: Interferon regulatory factor 5, full length, phosphomimetic (IRF5, Homo sapiens, UniProt Q13568-2, residues 1-514, S451D/S453D/S456D/S462D)
| Strand | fitted relative affinity [z-score] |
| --- | --- |
| GACAATTTCAGTATCGAGACGTGCTAG | 2.95 |
| GACGGACTGGAATTTCGGGACGTGCTA | -0.352 |
| GACTATATCGGGACTGGAGACGTGCTA | -0.194 |
| CTCAGTTTATTTATTTTTACGTGCTAG | 0.784 |
| GACGGACTGGGGACTGGGGACGTGCTA | -0.171 |
| GACTGACTGGACTTTCGGGACGTGCTA | 0.647 |
| TTAGGTTTCCCTCTCCTTTAGTGCTAG | 2.46 |
| ATAGGTATCGACACTGGGTTAGTGCTA | 4.05 |
| TTAGAACGGAGTTTCGATTAGTGCTAG | 6.78 |
| TTACATATCAGTTTCGATTAGTGCTAG | 8.54 |
| TTCGGTTTCCTTCTCCTTTAGTGCTAG | 2.38 |
| TCAGGTTTCTGGTTTATACTGTGCTAG | 3.17 |
| GGCTGTTTGATCTTGATCCTGTGCTAG | -0.305 |
| GGGAGTGTCAATAATGACCACGTGCTA | 0.526 |
| CAGTTTTCCTCTGTCATTTTGTGCTAG | 2.44 |
| GACGAACTGGGGTTTAGAGACGTGCTA | -0.0742 |
| GGCGGACTGGGTTTCGGGACGTGCTAG | 2.97 |
| GTCGGTATCCTTTTCCTGACGTGCTAG | 2.02 |
| GGAAATTCCAAGTTCATGGGGTGCTAG | -0.115 |
| TCAAGCTTCCATTTTCTACTGTGCTAG | 0.807 |
| GACGGTTTAGACACTGGGGACGTGCTA | 0.344 |
| TTGGGTTTCCTTATCCTTTAGTGCTAG | 1.47 |
| CAGCTTTTATCCCTGACAGAGTGCTAG | 0.331 |
| GACGATTTCGGGACTGGAGTCGTGCTA | 0.407 |
| GACGGTATCGACTTTCTGGACGTGCTA | 4.08 |

Set 6 — technique: universal PBM; form: double-stranded DNA, one strand shown; sample: in vitro; tested at: not given; direction: higher = stronger binding
Target: Sal-like protein 4, full length isoform B (SALL4, Homo sapiens, UniProt Q9UJQ4-2, residues 1-616)
Notes: 8-mer, flanks averaged, mean of replicates
| Strand | E-score |
| --- | --- |
| CATCAACC | 0.0685 |
| AGAACTGA | 0.00094 |
| ACTGCTCG | -0.115 |
| GACTGTCC | -0.162 |
| CTCTCTCC | -0.185 |
| CAAATTGG | 0.145 |
| ACCTACTC | -0.0376 |
| AATACAGT | 0.237 |
| ACATACAC | 0.202 |
| GCCGAAAA | -0.0237 |
| AGAGCCGG | -0.295 |
| AGGACAGC | -0.214 |
| CAAATAGG | 0.0453 |
| AGCAGTAC | 0.0472 |
| AGTGCTCG | -0.232 |
| GATTGCAA | 0.0747 |
| AACAACAC | 0.128 |
| CGGCGTAC | -0.314 |
| ACCTGGCG | -0.32 |
| AATTCGCG | -0.0456 |
| AATTGCAG | 0.123 |
| CATGGATC | -0.034 |
| ACTGTACA | 0.173 |
| GTGTGGTA | -0.0577 |
| AACGCAAG | -0.0338 |

Some of these lines once more (set 6):
| Strand | E-score |
| --- | --- |
| GACTGTCC | -0.162 |
| CTCTCTCC | -0.185 |
| CAAATTGG | 0.145 |
| ACCTACTC | -0.0376 |
| AATACAGT | 0.237 |
| ACATACAC | 0.202 |
| GCCGAAAA | -0.0237 |
| AGAGCCGG | -0.295 |
| AGGACAGC | -0.214 |
